Results pooled from the literature.
Every numbered part comes from another study and shows a few of its results, in no order. Values joined by “and” are separate records of one study, mostly repeats; a detail may differ.
Chain of UniProt Q9NYL2 (whole entry, looked up): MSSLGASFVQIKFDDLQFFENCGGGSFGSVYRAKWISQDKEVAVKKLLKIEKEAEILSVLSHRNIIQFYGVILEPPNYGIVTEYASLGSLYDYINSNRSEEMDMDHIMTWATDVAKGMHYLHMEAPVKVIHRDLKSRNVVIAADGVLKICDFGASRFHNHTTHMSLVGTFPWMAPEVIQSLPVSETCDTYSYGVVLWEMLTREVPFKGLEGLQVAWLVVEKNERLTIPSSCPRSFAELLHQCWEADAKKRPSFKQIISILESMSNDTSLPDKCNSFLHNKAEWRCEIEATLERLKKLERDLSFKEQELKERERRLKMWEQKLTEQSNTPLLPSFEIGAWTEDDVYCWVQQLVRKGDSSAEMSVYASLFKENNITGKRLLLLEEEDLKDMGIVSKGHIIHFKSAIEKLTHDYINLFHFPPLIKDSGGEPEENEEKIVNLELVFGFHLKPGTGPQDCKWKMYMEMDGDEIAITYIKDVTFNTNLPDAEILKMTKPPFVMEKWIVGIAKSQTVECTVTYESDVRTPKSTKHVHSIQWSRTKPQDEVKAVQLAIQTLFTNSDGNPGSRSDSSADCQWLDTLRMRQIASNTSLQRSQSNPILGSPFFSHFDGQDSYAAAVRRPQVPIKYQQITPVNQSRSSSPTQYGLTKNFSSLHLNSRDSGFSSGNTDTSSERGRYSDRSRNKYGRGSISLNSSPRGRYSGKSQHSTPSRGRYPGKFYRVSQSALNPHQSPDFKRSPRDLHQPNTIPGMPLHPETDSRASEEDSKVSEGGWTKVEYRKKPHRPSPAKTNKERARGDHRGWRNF
Chain of UniProt Q8TD19 (whole entry, looked up): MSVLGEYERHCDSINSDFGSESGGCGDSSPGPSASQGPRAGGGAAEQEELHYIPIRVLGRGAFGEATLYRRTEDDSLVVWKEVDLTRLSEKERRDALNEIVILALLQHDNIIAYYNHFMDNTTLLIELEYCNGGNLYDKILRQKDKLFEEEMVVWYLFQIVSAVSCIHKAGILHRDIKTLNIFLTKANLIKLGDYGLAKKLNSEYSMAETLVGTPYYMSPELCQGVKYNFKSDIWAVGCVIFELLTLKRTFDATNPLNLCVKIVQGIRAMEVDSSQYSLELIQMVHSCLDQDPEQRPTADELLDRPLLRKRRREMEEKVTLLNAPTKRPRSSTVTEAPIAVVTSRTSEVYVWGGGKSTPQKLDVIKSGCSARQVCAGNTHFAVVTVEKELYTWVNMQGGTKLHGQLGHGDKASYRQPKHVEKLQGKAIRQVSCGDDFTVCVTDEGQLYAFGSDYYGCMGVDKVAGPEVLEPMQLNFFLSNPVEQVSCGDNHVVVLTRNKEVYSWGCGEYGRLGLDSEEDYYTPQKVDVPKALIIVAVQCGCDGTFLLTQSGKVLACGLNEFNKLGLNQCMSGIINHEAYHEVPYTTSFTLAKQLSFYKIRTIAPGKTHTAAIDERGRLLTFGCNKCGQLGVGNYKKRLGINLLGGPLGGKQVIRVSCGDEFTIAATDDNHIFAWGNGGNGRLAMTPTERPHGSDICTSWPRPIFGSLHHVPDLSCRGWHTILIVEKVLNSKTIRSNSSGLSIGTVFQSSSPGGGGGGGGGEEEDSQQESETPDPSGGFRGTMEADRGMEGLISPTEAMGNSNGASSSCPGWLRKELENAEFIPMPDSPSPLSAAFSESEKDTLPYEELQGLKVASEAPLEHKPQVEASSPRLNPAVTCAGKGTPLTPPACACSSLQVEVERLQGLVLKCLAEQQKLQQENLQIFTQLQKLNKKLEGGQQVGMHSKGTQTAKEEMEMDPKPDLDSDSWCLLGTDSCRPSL
Chain of UniProt Q8IY84 (whole entry, looked up): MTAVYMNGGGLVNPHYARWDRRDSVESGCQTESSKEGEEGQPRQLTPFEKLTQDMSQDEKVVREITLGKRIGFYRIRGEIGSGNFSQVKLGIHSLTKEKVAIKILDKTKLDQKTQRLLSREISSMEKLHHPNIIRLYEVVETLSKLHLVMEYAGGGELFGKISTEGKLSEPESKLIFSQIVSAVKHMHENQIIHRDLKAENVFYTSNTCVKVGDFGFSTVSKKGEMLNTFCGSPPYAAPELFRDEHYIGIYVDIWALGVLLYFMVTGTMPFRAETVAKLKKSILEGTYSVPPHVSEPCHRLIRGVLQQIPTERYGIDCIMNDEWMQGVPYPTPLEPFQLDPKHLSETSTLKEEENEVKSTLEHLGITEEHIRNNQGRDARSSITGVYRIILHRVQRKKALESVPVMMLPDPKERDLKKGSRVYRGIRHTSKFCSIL
Chain of UniProt Q86YV6 (whole entry, looked up): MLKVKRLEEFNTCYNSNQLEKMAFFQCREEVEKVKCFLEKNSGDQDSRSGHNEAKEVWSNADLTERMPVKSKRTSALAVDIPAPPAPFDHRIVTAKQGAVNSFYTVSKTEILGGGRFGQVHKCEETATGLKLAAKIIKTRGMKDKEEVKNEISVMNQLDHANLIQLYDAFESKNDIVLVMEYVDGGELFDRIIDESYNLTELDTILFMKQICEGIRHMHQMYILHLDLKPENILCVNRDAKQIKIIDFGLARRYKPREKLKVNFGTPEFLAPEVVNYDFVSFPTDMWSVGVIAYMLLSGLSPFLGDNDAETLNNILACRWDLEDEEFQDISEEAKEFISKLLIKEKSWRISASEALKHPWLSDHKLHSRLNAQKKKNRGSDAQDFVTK

Study 1 — read-out: thermal unfolding; method: differential scanning fluorimetry; tested at: 5.5 µM; reading: higher = more unfolded
Structure (SMILES): C[C@@H]1CN(c2ccc(-c3cc(C(=O)NCCOCCOCCOCCOCCOCCOCCNC(=O)/C=C/c4[nH]cc(C(=O)N[C@@H](CC(N)=O)c5ccc(F)c(Cl)c5)c4-c4ccc(Cl)cc4F)ccc3F)cc2NC(=O)c2ccc(F)cc2C(F)(F)F)C[C@H](C)N1C
DCAF1: DDB1- and CUL4-associated factor 1 (DCAF1, Homo sapiens, UniProt Q9Y4B6)
Chain of UniProt Q9Y4B6 (whole entry, looked up): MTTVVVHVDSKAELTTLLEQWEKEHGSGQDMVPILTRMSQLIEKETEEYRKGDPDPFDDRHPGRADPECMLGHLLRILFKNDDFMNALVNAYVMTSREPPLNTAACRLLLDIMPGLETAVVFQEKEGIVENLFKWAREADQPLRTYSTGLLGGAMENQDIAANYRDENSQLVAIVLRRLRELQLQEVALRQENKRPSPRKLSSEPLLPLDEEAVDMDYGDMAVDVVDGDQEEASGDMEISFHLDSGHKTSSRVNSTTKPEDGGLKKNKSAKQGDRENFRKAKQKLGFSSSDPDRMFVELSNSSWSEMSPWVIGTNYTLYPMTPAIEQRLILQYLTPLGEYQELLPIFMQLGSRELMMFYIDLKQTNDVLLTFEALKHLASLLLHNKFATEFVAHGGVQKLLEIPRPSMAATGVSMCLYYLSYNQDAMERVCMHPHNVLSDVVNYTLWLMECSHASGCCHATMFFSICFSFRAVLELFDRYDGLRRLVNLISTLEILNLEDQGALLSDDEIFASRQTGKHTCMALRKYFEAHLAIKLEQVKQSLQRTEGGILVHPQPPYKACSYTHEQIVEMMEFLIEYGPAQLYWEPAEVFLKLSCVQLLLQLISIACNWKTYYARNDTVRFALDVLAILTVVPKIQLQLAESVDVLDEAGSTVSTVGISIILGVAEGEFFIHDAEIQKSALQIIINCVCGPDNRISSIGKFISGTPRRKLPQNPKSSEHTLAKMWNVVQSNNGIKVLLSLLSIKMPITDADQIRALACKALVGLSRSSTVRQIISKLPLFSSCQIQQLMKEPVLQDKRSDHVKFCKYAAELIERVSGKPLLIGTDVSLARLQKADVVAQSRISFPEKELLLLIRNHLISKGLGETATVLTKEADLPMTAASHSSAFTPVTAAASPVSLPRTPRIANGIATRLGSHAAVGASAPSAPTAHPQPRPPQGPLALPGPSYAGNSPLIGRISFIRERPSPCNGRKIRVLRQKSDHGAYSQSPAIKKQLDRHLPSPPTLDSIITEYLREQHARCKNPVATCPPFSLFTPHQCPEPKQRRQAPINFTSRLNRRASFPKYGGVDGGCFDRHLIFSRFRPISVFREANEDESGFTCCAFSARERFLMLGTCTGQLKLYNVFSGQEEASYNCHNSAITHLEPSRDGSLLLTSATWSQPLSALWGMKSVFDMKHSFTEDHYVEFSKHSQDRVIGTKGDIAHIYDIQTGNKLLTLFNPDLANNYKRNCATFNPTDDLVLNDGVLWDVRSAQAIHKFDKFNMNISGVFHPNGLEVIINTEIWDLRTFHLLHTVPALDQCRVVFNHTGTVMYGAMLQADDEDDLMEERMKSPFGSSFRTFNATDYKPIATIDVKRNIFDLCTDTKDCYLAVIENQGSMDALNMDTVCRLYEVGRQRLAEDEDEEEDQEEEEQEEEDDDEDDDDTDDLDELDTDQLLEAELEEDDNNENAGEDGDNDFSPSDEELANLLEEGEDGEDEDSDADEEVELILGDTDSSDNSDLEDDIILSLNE
WDR5: WD repeat-containing protein 5 (WDR5, Homo sapiens, UniProt P61964)
| target | temperature | SYPRO Orange fluorescence [a.u.] |
| --- | --- | --- |
| DCAF1 | 64.81 °C | 53700 |
| DCAF1 | 26.8 °C | 7510 |
| DCAF1 | 64.01 °C | 54100 |
| WDR5 | 82.01 °C | 65700 |
| WDR5 | 57.21 °C | 15900 |
| DCAF1 | 46.2 °C | 15100 |
| DCAF1 | 53.61 °C | 23500 |
| WDR5 | 33.2 °C | 13800 |

Study 2 — method: NanoBRET; tested at: 1 µM
Compound: COc1cc(-c2nc3ccc(C(=O)NCCCN(C)C)cc3n2C2CCC2)cc(OC)c1OC
| target | target occupancy |
| --- | --- |
| MAP3K20 (Homo sapiens, UniProt Q9NYL2) | 0.04% |
| NIM1K (Homo sapiens, UniProt Q8IY84) | 1.92% |
| SLK (Homo sapiens, UniProt Q9H2G2) | -5.37% |
| MYLK4 (Homo sapiens, UniProt Q86YV6) | -6.37% |
| PRKAA2 (Homo sapiens, UniProt P54646) | 1.09% |
| STK33 (Homo sapiens, UniProt Q9BYT3) | 1.24% |
| NEK9 (Homo sapiens, UniProt Q8TD19) | 4.99% |
| Cyclin-dependent kinase 1, with cyclin B1 (CDK1, Homo sapiens, UniProt P06493) | 2.41% |

Study 3 — action: degrader; method: HiBiT; cells: HEK293
Compound: Cn1cc(-c2cccc(CN3CCC4(CC3)COc3c4ccc4c3CN([C@@H]3CCC(=O)NC3=O)C4=O)c2)cn1
Target: CRBN/Zinc finger protein Helios (Homo sapiens, UniProt Q96SW2+Q9UKS7)
Chain of UniProt Q9UKS7 (whole entry, looked up): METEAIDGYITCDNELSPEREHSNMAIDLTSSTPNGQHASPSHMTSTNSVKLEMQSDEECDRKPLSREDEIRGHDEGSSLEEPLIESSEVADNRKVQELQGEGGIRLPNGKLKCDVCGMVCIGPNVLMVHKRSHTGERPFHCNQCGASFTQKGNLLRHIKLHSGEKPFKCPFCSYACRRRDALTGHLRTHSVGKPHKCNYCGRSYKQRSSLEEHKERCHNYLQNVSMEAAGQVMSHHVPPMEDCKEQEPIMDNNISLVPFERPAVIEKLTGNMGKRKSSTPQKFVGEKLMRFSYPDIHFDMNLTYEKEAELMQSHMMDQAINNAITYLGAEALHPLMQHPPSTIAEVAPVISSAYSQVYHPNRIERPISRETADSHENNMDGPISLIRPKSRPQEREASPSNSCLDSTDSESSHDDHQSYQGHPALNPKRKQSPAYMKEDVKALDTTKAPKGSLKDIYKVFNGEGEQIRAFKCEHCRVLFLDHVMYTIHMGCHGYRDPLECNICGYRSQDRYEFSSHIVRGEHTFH
Chain of UniProt Q96SW2 (whole entry, looked up): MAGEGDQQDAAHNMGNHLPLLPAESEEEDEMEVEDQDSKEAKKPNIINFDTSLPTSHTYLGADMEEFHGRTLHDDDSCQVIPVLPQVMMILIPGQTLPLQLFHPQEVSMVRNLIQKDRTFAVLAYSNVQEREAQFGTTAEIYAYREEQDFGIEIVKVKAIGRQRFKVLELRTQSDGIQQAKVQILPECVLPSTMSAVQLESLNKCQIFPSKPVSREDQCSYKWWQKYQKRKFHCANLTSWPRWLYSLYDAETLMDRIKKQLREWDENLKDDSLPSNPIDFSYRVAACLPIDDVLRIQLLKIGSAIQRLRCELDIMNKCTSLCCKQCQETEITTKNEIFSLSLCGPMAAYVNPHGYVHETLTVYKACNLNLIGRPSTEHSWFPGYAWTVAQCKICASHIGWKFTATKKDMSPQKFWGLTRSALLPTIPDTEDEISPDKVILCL
| tested at | protein remaining |
| --- | --- |
| 0.01694 nM | 91.7% and 103% |
| 12.35 nM | 35.9% and 33.6% |
| 37.04 nM | 19.8% and 21.4% |
| 0.4572 nM | 89.6% and 103% |

Study 4 — cell line: U-87 MG; tested at: concentration not given; relative to: DMSO
SMILES: CCN1/C(=C/C=C2\CCCC(/C=C/C3=[N+](CC)c4ccccc4C3(C)C)=C2NCCCCCCCCN2CCC(Nc3nc4ccccc4n3Cc3ccc(F)cc3)CC2)C(C)(C)c2ccccc21
| item | log2 fold change |
| --- | --- |
| RRM2 mRNA | -1.93 |
| ADAMTSL4 mRNA | -2.01 |
| TAX1BP1 mRNA | 0.903 |
| SYNGR2 mRNA | 1.8 |
| FAAP100 mRNA | -0.907 |
| PSG5 mRNA | -2.57 |
| KIF2C mRNA | -1.61 |
| HOXB4 mRNA | -1.08 |

Repeated from above (study 1):
| target | temperature | SYPRO Orange fluorescence [a.u.] |
| --- | --- | --- |
| DCAF1 | 64.81 °C | 53700 |
| WDR5 | 33.2 °C | 13800 |
| WDR5 | 82.01 °C | 65700 |
| DCAF1 | 46.2 °C | 15100 |
| WDR5 | 57.21 °C | 15900 |
